Experimental data of several laboratories.
Compare with care: the assays were run in different laboratories. pIC50: −log10 of the molar value.
Cell line: KM12

The TGI of `C#C[C@@]1(O)[C@@H](CO)O[C@@H](n2cc(I)c3c(N)ncnc32)[C@@H]1O` is reported as greater than 100 µM (SRB; NCI-60 screen).
The pIC50 of `O=C1NC(=NCc2cccs2)S/C1=C\c1ccc2ncccc2c1` is reported as less than 5.00 (MTS; colon cancer).
For `CCN(CC)c1ccc(C=NNC(=O)CSc2nc3ccccc3c(=O)n2Cc2ccc(S(N)(=O)=O)cc2)c(O)c1`, the TGI was greater than 100 µM (NCI five-dose screen).
`NNc1nc(-c2ccc(Cl)cc2)c2c(NC(=O)c3ccccc3)nnc-2[nH]1` has a cell growth of 100% (SRB; 10 µM, NCI60 single-dose screen, colon cancer; relative to: untreated).
`CC(=O)O[C@H]1C(=O)[C@@]2(C)[C@H]([C@H](OC(=O)c3ccccc3)[C@]3(O)C[C@H](OC(=O)[C@H](O)[C@@H](NC(=O)c4ccccc4)c4ccccc4)C(C)=C1C3(C)C)[C@]1(OC(C)=O)CO[C@@H]1C[C@@H]2O` has a TGI of 0.16 µM (sulforhodamine B; colon cancer; NCI60 screen).
`O=C(Nc1nnc2[nH]c(=S)[nH]c(-c3ccc(Cl)cc3)c1-2)c1ccccc1` gave a cell growth of 98.5% (SRB; 10 µM, NCI60 single-dose screen, colon cancer; relative to: untreated).
With `CCCN1CCN(c2ccc3[nH]c(-c4ccc5[nH]c(-c6ccc(C(F)(F)F)cc6)nc5c4)nc3c2)CC1` the growth percent was -86.4% (SRB; 10 µM, 48 h).
The TGI of `C#C[C@@]1(O)[C@@H](CO)O[C@@H](n2cc(Cl)c3c(N)ncnc32)[C@@H]1O` is reported as greater than 100 µM (SRB; NCI-60 screen).
For `Cc1cc(-c2ccccc2)n(-c2nc(-c3ccc(Cl)cc3)c3c(NC(=O)c4ccccc4)nnc-3[nH]2)n1`, the cell growth was 102% (SRB; 10 µM, NCI60 single-dose screen, colon cancer; relative to: untreated).
`CCCCN1CCN(c2ccc3[nH]c(-c4ccc5[nH]c(-c6ccc(OCC)cc6)nc5c4)nc3c2)CC1` has a growth percent of 49.1% (SRB; 10 µM, 48 h).
`C#C[C@@]1(O)[C@@H](CO)O[C@@H](n2ccc3c(N)ncnc32)[C@@H]1O` gave a TGI of 10.9 µM (SRB; NCI-60 screen).
The GI50 of `Cn1cncc1C1=CN(c2ncnc3[nH]cnc23)CCS1` is reported as 14.1 µM (colon cancer).
The growth percent of `CCCN1CCN(c2ccc3nc(-c4ccc5nc(-c6cc(OC)ccc6OC)[nH]c5c4)[nH]c3c2)CC1` is reported as 32.2% (SRB; 10 µM, 48 h).
`O=C(Nc1nnc2n3c(=S)[nH][nH]c3nc(-c3ccc(Cl)cc3)c1-2)c1ccccc1` gave a cell growth of 97.9% (SRB; 10 µM, NCI60 single-dose screen, colon cancer; relative to: untreated).
`CCCCN1CCN(c2ccc3[nH]c(-c4ccc5[nH]c(-c6cc(OC)c(OC)c(OC)c6)nc5c4)nc3c2)CC1` gave a growth percent of 59.3% (SRB; 10 µM, 48 h).
`Cc1n[nH]c2nc(-c3ccc(Cl)cc3)c3c(NC(=O)c4ccccc4)nnc-3n12` gave a cell growth of 105% (SRB; 10 µM, NCI60 single-dose screen, colon cancer; relative to: untreated).
